Measured values of several laboratories.
Numbered parts are unrelated; each lists some results of a single study. Changes are numbered by the printed parent chain.

Block 1
Target: Prothrombin, mature alpha-thrombin (F2, Homo sapiens, UniProt P00734)
Technique: aptamer microarray, sandwich
Form: DNA with 2'F-ANA
Sample: in vitro
Tested at: 200 nM
Setting: whole 15-mer aptamer, many near background
With: Cy3 exosite-II aptamer, 400 nM
Direction: higher = stronger binding
Strand: GGTTGGTGTGGTTGG
Modification	mean fluorescence intensity
2'F-ANA at 1 4 7 12	338 a.u.
2'F-ANA at 1 3 4 5 6 8 11 12 13	112 a.u.
2'F-ANA at 1 4 6 7 9 11 13 15	71.1 a.u.
2'F-ANA at 2 6 7 9 11 14	117 a.u.
2'F-ANA at 1 2 3 4 5 6 7 9 12 14	50 a.u.
2'F-ANA at 1 2 5 6 8 11 13 14	59.4 a.u.
2'F-ANA at 1 3 4 5 8 9 10 12 13 15	47.3 a.u.
2'F-ANA at 1 2 5 7 9 13	48.2 a.u.
2'F-ANA at 2 3 4 5 6 8 10 12	84.7 a.u.
2'F-ANA at 2 3 4 6 7 8 9 11 12 13 15	504 a.u.
2'F-ANA at 1 6 8 12 14 15	76.8 a.u.
2'F-ANA at 1 4 5 6 7 10 11	64.5 a.u.
2'F-ANA at 2 6 7 11 14	128 a.u.
2'F-ANA at 1 4 6 11 13	81.8 a.u.
2'F-ANA at 3 4 8 9 10 11 12 13 14	171 a.u.

Block 2
Target: CCNF, cyclin fold, Cln2 fusion (human)
Technique: yeast growth competition, sequencing
Sample: yeast
Setting: strong parent motif
Relative to: not given
Direction: higher = stronger binding
Starting sequence: BRCA2 docking peptide (human); PSIKRNLLNEFDR
Variant	normalised enrichment score
PSIKRNLLNNFDR [E10N]	1.87
PRIKRNLLNEFDR [S2R]	2.28
PMIKRNLLNEFDR [S2M]	1.49
PSIKRKLLNEFDR [N6K]	2.11
PSIKRCLLNEFDR [N6C]	4.92
PSIRRNLLNEFDR [K4R]	4.97
KSIKRNLLNEFDR [P1K]	4.82
PSIKRNLYNEFDR [L8Y]	2.58
PSIKRNLLNVFDR [E10V]	2.08

Block 3
Target: Sal-like protein 4, full length isoform A (SALL4, Homo sapiens, UniProt Q9UJQ4, residues 1-1053)
UniProt Q9UJQ4, sequence (whole entry, looked up): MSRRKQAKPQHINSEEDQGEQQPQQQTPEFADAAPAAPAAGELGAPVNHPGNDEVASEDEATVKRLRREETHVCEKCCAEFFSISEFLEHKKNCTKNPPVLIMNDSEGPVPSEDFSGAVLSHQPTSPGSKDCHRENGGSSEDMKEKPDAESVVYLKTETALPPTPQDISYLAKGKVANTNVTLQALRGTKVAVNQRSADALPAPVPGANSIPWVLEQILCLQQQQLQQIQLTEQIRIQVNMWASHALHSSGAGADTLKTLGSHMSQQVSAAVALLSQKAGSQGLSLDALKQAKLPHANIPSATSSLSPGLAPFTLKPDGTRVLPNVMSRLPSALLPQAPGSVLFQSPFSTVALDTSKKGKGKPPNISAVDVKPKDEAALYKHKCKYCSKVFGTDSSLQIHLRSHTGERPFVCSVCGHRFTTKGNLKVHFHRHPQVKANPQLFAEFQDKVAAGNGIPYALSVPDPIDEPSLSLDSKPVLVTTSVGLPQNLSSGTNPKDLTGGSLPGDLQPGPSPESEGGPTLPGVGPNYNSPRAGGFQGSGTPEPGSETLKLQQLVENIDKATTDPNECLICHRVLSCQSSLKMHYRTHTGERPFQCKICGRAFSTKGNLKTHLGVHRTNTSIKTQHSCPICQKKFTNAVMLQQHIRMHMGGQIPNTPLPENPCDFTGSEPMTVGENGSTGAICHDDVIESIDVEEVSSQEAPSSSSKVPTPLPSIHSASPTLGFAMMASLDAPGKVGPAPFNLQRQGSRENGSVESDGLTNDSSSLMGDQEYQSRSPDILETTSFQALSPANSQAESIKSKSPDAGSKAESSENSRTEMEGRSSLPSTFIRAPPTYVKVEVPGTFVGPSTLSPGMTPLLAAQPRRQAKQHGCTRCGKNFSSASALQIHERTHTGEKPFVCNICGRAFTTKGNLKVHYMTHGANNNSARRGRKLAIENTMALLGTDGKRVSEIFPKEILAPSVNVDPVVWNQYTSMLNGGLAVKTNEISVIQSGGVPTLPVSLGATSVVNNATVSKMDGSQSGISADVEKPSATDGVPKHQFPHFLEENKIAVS
Technique: universal PBM
Form: double-stranded DNA, one strand shown
Sample: in vitro
Tested at: 600 nM
Setting: 8-mer, flanks averaged, mean of replicates
Direction: higher = stronger binding
Strand	E-score
GCGCAGAA	-0.156
AGTTTGAA	0.214
GATCACAC	-0.119
CTACGTGC	-0.0474
GTCCTTAA	0.174
TCACACGA	0.0486
AACGACTC	-0.181
GCATATCC	0.172
ATGCTTCG	0.00086
GACTATAC	0.137
AGCCCACA	-0.0892
CCGAGAGG	-0.29
CCATGAAC	-0.0999

Single results of other studies
Molecule	target	test	system	conditions	scale	quantity	result
PhoQ, residues 284 288 289 292 302 303 AQGLTV	PhoP, residues 12 14 15 18 19 TPWLV (Escherichia coli, UniProt P23836)	Sort-seq, measured: YFP reporter	E. coli	PhoQ-PhoP variant library, with: 10 µM Mg2+	relative to: high Mg2+ state, higher = stronger signaling	fold induction	0.61

Repeated from above (block 2):
Variant	normalised enrichment score
PSIKRNLLNNFDR [E10N]	1.87
PRIKRNLLNEFDR [S2R]	2.28
PMIKRNLLNEFDR [S2M]	1.49
